Measurements of several laboratories.
Numbered parts are unrelated; each lists some results of a single study.

Study 1 — method: RNA Bind-n-Seq; form: RNA; medium: in vitro; concentration: 200 nM; setting: whole 134-nt RNA, ends assumed; with: 150 mM LiCl; reference: input library; direction: higher = stronger binding; each molecule: 7-deaza-guanosine replaces G
Target: Ras GTPase-activating protein-binding protein 1, full length (G3BP1, Homo sapiens, UniProt Q13283)
Chain of UniProt Q13283 (whole entry, looked up): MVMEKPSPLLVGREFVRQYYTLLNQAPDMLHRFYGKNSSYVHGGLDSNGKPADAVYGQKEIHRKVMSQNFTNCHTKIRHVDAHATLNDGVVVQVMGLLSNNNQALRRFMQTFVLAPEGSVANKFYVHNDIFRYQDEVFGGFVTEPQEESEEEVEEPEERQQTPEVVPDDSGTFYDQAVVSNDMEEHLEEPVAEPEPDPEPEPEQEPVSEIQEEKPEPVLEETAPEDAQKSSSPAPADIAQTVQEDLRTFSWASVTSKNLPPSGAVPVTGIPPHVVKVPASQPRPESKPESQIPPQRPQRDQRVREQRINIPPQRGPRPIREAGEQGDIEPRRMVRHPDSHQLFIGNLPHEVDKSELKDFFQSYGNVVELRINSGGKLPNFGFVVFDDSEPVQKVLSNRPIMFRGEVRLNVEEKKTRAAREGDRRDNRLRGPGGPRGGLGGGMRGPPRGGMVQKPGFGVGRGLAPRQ
With `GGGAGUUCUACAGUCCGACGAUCAGUCCUGUGCUACACAUCGUAUGUACCGAAUCGGGGAGGGGUUUUUUUGGGGAGGGGAAAGUAUUAUGUUACGCCGUUCGGAUCUGCACUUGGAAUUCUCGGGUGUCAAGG` the log2 enrichment was 0.535.
`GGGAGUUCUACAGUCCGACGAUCAAGUCCUGUGCUACACAUCGUAUGUACCGAAUCGGGAGGGAAAAAAAGGGUUUGGGAAAGUAUUAUGUUACGCCGUUCGGAUCUGCACUUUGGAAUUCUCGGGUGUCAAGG` gave a log2 enrichment of -1.75.
The log2 enrichment of `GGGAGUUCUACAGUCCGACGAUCCCUCAAGUCCUGUGCUACACAUCGUAUGUACCGAAUCGGGGAGGAGGGGAGGGAAAGUAUUAUGUUACGCCGUUCGGAUCUGCACUUCCAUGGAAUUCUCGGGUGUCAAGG` is reported as 0.639.
The log2 enrichment of `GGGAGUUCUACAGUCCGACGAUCGUCCUGUGCUACACAUCGUAUGUACCGAAUCGGCCCCCGGGCCCCCGGGGCCCCCGGGGAAAGUAUUAUGUUACGCCGUUCGGAUCUGCAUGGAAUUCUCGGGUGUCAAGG` is reported as -1.97.
`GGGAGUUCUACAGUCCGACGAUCGUCCUGUGCUACACAUCGUAUGUACCGAAUCGGGGUGGGGAAAAAAAGGGGAAAGGGGAAAGUAUUAUGUUACGCCGUUCGGAUCUGCACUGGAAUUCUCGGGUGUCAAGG` gave a log2 enrichment of 0.392.
With `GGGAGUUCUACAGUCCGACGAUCGUCCUGUGCUACACAUCGUAUGUACCGAAUCGGCCCCCGGCCCCCGGGGCCCCCGGGGAAAGUAUUAUGUUACGCCGUUCGGAUCUGCACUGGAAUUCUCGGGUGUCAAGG` the log2 enrichment was -0.829.
The log2 enrichment of `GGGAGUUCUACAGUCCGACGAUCAGUCCUGUGCUACACAUCGUAUGUACCGAAUCGGGUUUUUGGGAAAAAGGGAAAGGGAAAGUAUUAUGUUACGCCGUUCGGAUCUGCACUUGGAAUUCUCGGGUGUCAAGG` is reported as -1.77.
With `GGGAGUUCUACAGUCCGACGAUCUGGGAGGUGGAUUUUGUUUAUUUUUUUAGCUCAUUUCCAGGGCUGGGAAUUUUUUUUUAAUAUGUGUCAUGAAUAAAGUUGUUUUUGAAAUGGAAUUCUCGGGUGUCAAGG` the log2 enrichment was -0.345.
With `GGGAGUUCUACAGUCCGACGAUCCUCAAGUCCUGUGCUACACAUCGUAUGUACCGAAUCGGGGAGGGAGGGAGGGGAAAGUAUUAUGUUACGCCGUUCGGAUCUGCACUUCCAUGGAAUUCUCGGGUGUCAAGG` the log2 enrichment was -0.539.
`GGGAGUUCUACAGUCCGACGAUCUGGCCCUGGUGGCAUGCGGGGAGGAAGAGGUGGCCUCAUGGAUCGUGGUGGUCCCGGUGGAAUGUUCAGAGGCGGCCGUGGUGGAGACAGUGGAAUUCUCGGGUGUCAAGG` has a log2 enrichment of 0.0784.
`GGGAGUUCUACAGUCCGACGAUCCCUGUGCUACACAUCGUAUGUACCGAAUCGGGUUUUUUUGGGAAAAAAAGGGAAAAAGGGAAAGUAUUAUGUUACGCCGUUCGGAUCUGCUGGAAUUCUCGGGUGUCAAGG` gave a log2 enrichment of -1.66.

Study 2 — target: UBE2D1 UBC core domain (UniProt P51668); method: yeast two-hybrid; medium: yeast; setting: mostly zero background; reference: not given; direction: higher = stronger interaction
B1: TRIM11 RING domain (UniProt Q96F44); chain LSTNLQEEATCAICLDYFTDPVMTDCGHNFCRECIRRCWGQPEGPYACPECRELSPQRNLRP
B2: BFAR RING domain (UniProt Q9NZS9); chain GPQISVSEFSCHCCYDILVNPTTLNCGHSFCRHCLALWWASSKKTECPECREKWEGFPKVS
B3: RNF182 RING domain (UniProt Q8N6D2); chain AESQASDELECKICYNRYNLKQRKPKVLECCHRVCAKCLYKIIDFGDSPQGVIVCPFCRFETCLPDDEV
B4: HLTF RING domain (UniProt Q14527); chain LILSSGSDEECAICLDSLTVPVITHCAHVFCKPCICQVIQNEQPHAKCPLCRNDIHEDNLLE
B5: MID2 RING domain (UniProt Q9UJV3); chain KMETLESELTCPICLELFEDPLLLPCAHSLCFSCAHRILVSSCSSGESIEPITAFQCPTCRYVISLNHRGL
B6: CNOT4 RING domain (UniProt O95628); chain MSRSPDAKEDPVECPLCMEPLEIDDINFFPCTCGYQICRFCWHRIRTDENGLCPACRKPYPED
B7: MKRN3 RING domain (UniProt Q13064); chain FAVQRGMDKVCGICMEVVYEKANPNDRRFGILSNCNHSFCIRCIRRWRSARQFENRIVKSCPQCRVTSELVIPSE
B8: ZMYND11 RING domain (UniProt Q15326); chain DEIDWETENHDWYCFECHLPGEVLICDLCFRVYHSKCLSDEFRLRDSSSPWQCPVCRSIKKKNTNKQEM
B9: RNF186 RING domain (UniProt Q9NXI6); chain HSGSTECDLECLVCREPYSCPRLPKLLACQHAFCAICLKLLLCVQDNTWSITCPLCRKVTAVPGGLI
B10: NFX1 RING domain (UniProt Q12986); chain IEQLTTEKYECMVCCELVRVTAPVWSCQSCYHVFHLNCIKKWARSPASQADGQSGWRCPACQNVSAHVPNTY
Target sequence (chain): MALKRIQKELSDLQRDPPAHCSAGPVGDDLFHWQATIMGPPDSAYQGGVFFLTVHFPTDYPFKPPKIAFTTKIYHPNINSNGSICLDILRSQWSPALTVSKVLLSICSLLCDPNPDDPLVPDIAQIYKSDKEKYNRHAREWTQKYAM
`B1 (TRIM11 RING domain)` — result for “lacZ reporter activity”: 0.
`B2 (BFAR RING domain)` — result for “lacZ reporter activity”: 0.
`FAEQPSVKLCCQLCCSVFKDPVITTCGHTFCRRCALKSEKCPVDNVKLTVVVNNI (TRAF7 RING domain (UniProt Q6Q0C0))` — result for “lacZ reporter activity”: 0.
`B3 (RNF182 RING domain)` — result for “lacZ reporter activity”: 0.
`B4 (HLTF RING domain)` — result for “lacZ reporter activity”: 0.
`LEALSSDFLACKICLEQLRAPKTLPCLHTYCQDCLAQLADGGRVRCPECRETVPVPPEGV (TRIM56 RING domain (UniProt Q9BRZ2))`: “lacZ reporter activity” 0.
For `B5 (MID2 RING domain)`, “lacZ reporter activity” read 6140.
For `B6 (CNOT4 RING domain)`, “lacZ reporter activity” read 13500.
Under “lacZ reporter activity”, `B7 (MKRN3 RING domain)` is recorded as 0.
`B8 (ZMYND11 RING domain)`: “lacZ reporter activity” 0.
`LVKDFNPYITCYICKGYLIKPTTVTECLHTFCKTCIVQHFEDSNDCPRCGNQVHETNPLE (PCGF5 RING domain (UniProt Q86SE9))`: “lacZ reporter activity” 0.
Under “lacZ reporter activity”, `B9 (RNF186 RING domain)` is recorded as 0.
`B10 (NFX1 RING domain)` — result for “lacZ reporter activity”: 0.

Study 3 — method: RNA Bind-n-Seq; form: RNA; medium: in vitro; concentration: not given; reference: input RNA pool; direction: higher = stronger binding
Target: RING finger protein unkempt homolog, zinc fingers 1-6, GST-SBP tag (UNK, Homo sapiens, UniProt Q9C0B0, residues 30-357)
Chain of UniProt Q9C0B0 (30-357, looked up): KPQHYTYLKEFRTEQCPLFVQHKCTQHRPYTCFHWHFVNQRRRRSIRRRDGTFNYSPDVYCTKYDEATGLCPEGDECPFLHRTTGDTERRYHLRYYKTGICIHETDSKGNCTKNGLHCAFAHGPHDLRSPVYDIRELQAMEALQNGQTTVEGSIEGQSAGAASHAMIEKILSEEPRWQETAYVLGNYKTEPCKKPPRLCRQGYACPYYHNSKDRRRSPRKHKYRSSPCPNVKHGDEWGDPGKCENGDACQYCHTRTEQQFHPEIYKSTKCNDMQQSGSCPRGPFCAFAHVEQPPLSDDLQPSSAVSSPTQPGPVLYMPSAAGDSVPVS
Setting: RNA with constant flanks, human-mouse chimeric sites, ends assumed
For `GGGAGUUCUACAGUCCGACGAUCGCUCUUGGCAAUGUAAUCAGCGCCUUGGGGGACAAGAGCAAGAGAGCCACCCAUGUCCCUUACAGAGACUCUAAGCUGACAAGACUCUUGCAGGAUUCCCUUGGGGGUAACAGCCAAACCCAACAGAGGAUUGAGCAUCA`, the bound/input enrichment was 0.146 ratio.
With `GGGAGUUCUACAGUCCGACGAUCUUUCUACUGCAGCAAACGAUGCUAAGAAUUAAGGAUCCUAAGAAGUCCCUGGAUUUUUAUACGAGGGUUCUUGGAAUGACCCUCCUGCAGAAGCUUGACUUCCCUGCUAUGAAGUUCUCGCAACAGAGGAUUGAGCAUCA` the bound/input enrichment was 0.167 ratio.
`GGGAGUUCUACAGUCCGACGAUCCAGCCUCAGAGCCCAGACUUCCUGGACAUUACCAACCCUAAAGCGGUAUUAGAAAAUGCAUUGAGAAACUUCGCCUGUCUGACGACUGGAGAUGUGAUUGCCAUCAACUACAAUGAGAAGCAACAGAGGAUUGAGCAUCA` gave a bound/input enrichment of 0.407 ratio.
`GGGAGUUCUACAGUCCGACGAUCCAGUCCCCGUGUCCCAGUGCAGGACGAUGUGAACAAAAACUCAAAGCGGACCCUCUAUUGUAGUUCUUGAUUCUCGAGUGCCAUUAUUGUUUUUAAACUUUUUUUUUUUUUUUUUAAAGACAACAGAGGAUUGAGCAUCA` gave a bound/input enrichment of 1.31 ratio.
For `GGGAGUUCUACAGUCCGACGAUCAAAUCGUGUGUGUCCAAUAUUGAAAGUGCUUUAUCUACACUCCAAUAUGUAAGCAGUAUAGUAGUUUCUUUAGAGAAUAGGUCAGCCAUUGUAAAGUACAAUGCAAGCUCAGUCACUCCACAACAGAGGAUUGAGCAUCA`, the bound/input enrichment was 41.2 ratio.
The bound/input enrichment of `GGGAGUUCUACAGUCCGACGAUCUCAUUUUUCUCUUUUCUGAUCGUCAGGUAGGAAAAGCCUAAAGAUUAGGUUGUAAGAAAAACAGAAGCCAUGUUUCGAAGACCUGUGUUACAGGUACUUCGUCAGUUUGUAAGACAUGAGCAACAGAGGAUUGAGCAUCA` is reported as 1.48 ratio.
For `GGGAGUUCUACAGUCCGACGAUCCCUCUGCCCCGCUCUGCAGCCUGGGGACACUGGGCUGGGACCAGAAUCUUAUUUUUUUUUAAAACUCUCAGUGUAACUGUAUCCCGUGACAUUUCAUUUUUUUUAAAUAGUGUAUUUUUUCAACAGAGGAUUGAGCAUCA`, the bound/input enrichment was 6.95 ratio.
`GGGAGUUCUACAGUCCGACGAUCGGUGGGGUGGUCAUUGCCGUUUGAGCUGCUGAUUUUCAUGAGUCGCCUUCAAAACUCUCGUGUAGGGUUGACAAUGUGGGGGGGUGGGGGAUCCAGCUAUUUUUUUUAUUUUCAAGUCCACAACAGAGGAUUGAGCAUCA` gave a bound/input enrichment of 2.15 ratio.
The bound/input enrichment of `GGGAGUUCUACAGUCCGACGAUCGAUCCACAGUGGUCUGAGGAGCAACUCAUUGCUGCAAAAUUCUGUUUUGCUGGACUUCUUAUAGGCCAGACUGAAGUGGACAUCAUGAGUCAUGCCACACAAGCUAUUUUUGAAAUUCUGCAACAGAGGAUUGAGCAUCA` is reported as 0.201 ratio.
`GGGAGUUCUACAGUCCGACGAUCUCUUAACUUAUUCAUUUAACUUAUUUUUAUAGCUAGAGCAAUAUUGUUAGUCUUAGACAAUAGCUCACAUUUUUUGAGAAGCAUGCCCUCCCUGUCCAUUGGGCCCAUAACAUGACCCAGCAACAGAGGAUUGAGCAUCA` gave a bound/input enrichment of 131 ratio.
`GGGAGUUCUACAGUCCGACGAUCAAGCAACGCAAACUUGAAACAAUUCGUUAUCUUGCAGAGCUUCGGUGCACUUGCUUGGCGAUAGCAUUGGGGUUUUAUAGGUUCUGGAAGGAGAACUGACGAUGAUGCUGCCGCUGCUGCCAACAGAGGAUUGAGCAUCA` has a bound/input enrichment of 0.443 ratio.

Study 4 — method: protein binding microarray; form: double-stranded DNA, one strand shown; medium: in vitro; concentration: not given; reference: not given; direction: higher = stronger binding
Target: Histone acetyltransferase KAT6A, both winged helices, GST fusion (KAT6A, Homo sapiens, UniProt Q92794, residues 1-181)
Setting: 8-mer, flanks averaged, mean of 2 arrays, mostly near background
Construct (chain): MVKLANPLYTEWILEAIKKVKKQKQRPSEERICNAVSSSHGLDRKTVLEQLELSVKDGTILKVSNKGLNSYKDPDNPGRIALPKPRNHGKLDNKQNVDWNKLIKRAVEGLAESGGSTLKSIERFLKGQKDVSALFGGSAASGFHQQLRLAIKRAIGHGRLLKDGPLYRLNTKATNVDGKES
`CCCCCCAC` has an E-score of -0.356.
For `ACTCTCGG`, the E-score was 0.0616.
The E-score of `CTGAAGCA` is reported as -0.143.
`ACAATGAT` has an E-score of -0.122.
With `GCTTTTAC` the E-score was 0.144.
With `TCCGATAA` the E-score was 0.0875.
The E-score of `AAAGCAGC` is reported as 0.0952.
The E-score of `ATAGGTAC` is reported as -0.154.
`CCGCTTAC` gave an E-score of 0.133.
The E-score of `AGCAACCT` is reported as -0.0388.
`CGATGCAC` has an E-score of -0.0682.
The E-score of `GGGGAGTA` is reported as -0.0872.
For `AAATGGGT`, the E-score was -0.0564.
For `AATTGTGT`, the E-score was -0.0771.
`AAGGAATC` has an E-score of -0.00242.
For `GAAGACAA`, the E-score was -0.103.
With `ACCCTGCC` the E-score was -0.0858.
`CTGCTAAA` gave an E-score of -0.102.
`ATCTGCGA` gave an E-score of -0.16.
With `AGGGACCT` the E-score was -0.0956.
`GCAAAGAA` has an E-score of 0.0366.

A few entries again (study 4):
With `ACCCTGCC` the E-score was -0.0858.
`CTGCTAAA` gave an E-score of -0.102.
`ATCTGCGA` gave an E-score of -0.16.
With `AGGGACCT` the E-score was -0.0956.
